Measurements gathered from unrelated publications.
Numbered parts are unrelated; each lists some results of a single study.

Series 1 — method: protein binding microarray; molecule type: double-stranded DNA, one strand shown; matrix: in vitro; concentration: not given; baseline: not given; direction: higher = stronger binding
Target: Histone acetyltransferase KAT6A, both winged helices, GST fusion (KAT6A, Homo sapiens, UniProt Q92794, residues 1-181)
Notes: 8-mer, flanks averaged, mean of 2 arrays, mostly near background
Construct (chain): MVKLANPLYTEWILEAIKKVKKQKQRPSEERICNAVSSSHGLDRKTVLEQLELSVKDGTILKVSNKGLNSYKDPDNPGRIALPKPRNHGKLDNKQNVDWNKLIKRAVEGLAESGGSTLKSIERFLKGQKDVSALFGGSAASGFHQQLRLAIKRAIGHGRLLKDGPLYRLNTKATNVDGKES
Oligonucleotide | E-score
TGCATTAA | 0.00336
AGAAGGCT | -0.214
ACACCGGT | 0.135

Single results of other studies
IRF7 S471D/S472D/S475D/S476D/S477D/S483D/S484D/S487D full length, phosphomimetic: Interferon regulatory factor 7, full length, phosphomimetic (IRF7, Homo sapiens, UniProt Q92985, residues 1-503, S471D/S472D/S475D/S476D/S477D/S483D/S484D/S487D)
Sequence of UniProt Q92985 (whole entry, unmodified, looked up): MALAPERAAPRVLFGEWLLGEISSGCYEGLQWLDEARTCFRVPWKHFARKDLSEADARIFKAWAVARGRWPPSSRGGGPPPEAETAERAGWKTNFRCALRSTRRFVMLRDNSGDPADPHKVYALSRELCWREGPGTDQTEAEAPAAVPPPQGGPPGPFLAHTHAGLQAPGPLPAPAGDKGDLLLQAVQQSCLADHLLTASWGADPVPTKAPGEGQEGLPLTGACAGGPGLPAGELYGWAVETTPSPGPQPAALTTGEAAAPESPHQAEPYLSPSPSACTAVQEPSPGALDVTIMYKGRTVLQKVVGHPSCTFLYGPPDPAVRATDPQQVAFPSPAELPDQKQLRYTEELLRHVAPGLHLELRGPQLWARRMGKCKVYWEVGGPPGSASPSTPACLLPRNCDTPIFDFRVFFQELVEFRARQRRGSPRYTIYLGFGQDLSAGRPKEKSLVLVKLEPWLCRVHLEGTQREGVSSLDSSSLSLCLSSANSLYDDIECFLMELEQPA
Substance | target | test | system | setting | how to read | quantity | result
GCCTAGCACGATGATATCAGTCTCGAGACGTGCTAGGTCTTGATTCGCTTGACGCTGCTG | IRF7 S471D/S472D/S475D/S476D/S477D/S483D/S484D/S487D full length, phosphomimetic | protein-binding microarray | double-stranded DNA, one strand shown, in vitro | 2200 nM top, 60-bp whole probe, with: salmon DNA 0.4 mg/ml | baseline: random background probes, higher = stronger binding | fitted relative affinity | 0.598 z-score
GGGAGUUCUACAGUCCGACGAUCAAACUUAGAAGAAUUCUAUGUUCUGAAAUGCACACUUUUAGAAUGUUUUUCUUUGAAAACAGGCUAAUAGUUUUUUCUUUUUUUGACAAAGUUUCAGCUCCUCUUUAAAGUGGAAUUCUCGGGUGCCAA | RNA binding protein fox-1 homolog 2, RRM domain, GST-SBP tag (RBFOX2, Homo sapiens, UniProt O43251-10, residues 100-194) | RNA Bind-n-Seq | RNA, in vitro | 365 nM, natural RNA segment, single round, ends assumed | baseline: no-protein control, higher = stronger binding | RBNS enrichment (R) | 0.504
GCCTAGCACGACGGACTGGGGTTTCGGGAAGTGCTAGTCTTGATTCGCTTGACGCTGCTG | IRF7 S471D/S472D/S475D/S476D/S477D/S483D/S484D/S487D full length, phosphomimetic | protein-binding microarray | double-stranded DNA, one strand shown, in vitro | 2200 nM top, 60-bp whole probe, with: salmon DNA 0.4 mg/ml | baseline: random background probes, higher = stronger binding | fitted relative affinity | -0.153 z-score
PhoQ, residues 284 288 289 292 302 303 TASMAF | PhoP, residues 12 14 15 18 19 DLLYY (Escherichia coli, UniProt P23836) | Sort-seq, measured: YFP reporter | E. coli | PhoQ-PhoP variant library, with: 10 µM Mg2+ | baseline: high Mg2+ state, higher = stronger signaling | fold induction | 2.24
GCCTAGCACGACGGAATGGGTATCGGGACGTGCTAGGTCTTGATTCGCTTGACGCTGCTG | IRF7 S471D/S472D/S475D/S476D/S477D/S483D/S484D/S487D full length, phosphomimetic | protein-binding microarray | double-stranded DNA, one strand shown, in vitro | 2200 nM top, 60-bp whole probe, with: salmon DNA 0.4 mg/ml | baseline: random background probes, higher = stronger binding | fitted relative affinity | -0.332 z-score
